Measured values of several laboratories.
Parts stem from different laboratories: compare values within a part only.

Study 1
Target: Sal-like protein 4, full length isoform A (SALL4, Homo sapiens, UniProt Q9UJQ4, residues 1-1053)
Sequence of UniProt Q9UJQ4 (whole entry, looked up): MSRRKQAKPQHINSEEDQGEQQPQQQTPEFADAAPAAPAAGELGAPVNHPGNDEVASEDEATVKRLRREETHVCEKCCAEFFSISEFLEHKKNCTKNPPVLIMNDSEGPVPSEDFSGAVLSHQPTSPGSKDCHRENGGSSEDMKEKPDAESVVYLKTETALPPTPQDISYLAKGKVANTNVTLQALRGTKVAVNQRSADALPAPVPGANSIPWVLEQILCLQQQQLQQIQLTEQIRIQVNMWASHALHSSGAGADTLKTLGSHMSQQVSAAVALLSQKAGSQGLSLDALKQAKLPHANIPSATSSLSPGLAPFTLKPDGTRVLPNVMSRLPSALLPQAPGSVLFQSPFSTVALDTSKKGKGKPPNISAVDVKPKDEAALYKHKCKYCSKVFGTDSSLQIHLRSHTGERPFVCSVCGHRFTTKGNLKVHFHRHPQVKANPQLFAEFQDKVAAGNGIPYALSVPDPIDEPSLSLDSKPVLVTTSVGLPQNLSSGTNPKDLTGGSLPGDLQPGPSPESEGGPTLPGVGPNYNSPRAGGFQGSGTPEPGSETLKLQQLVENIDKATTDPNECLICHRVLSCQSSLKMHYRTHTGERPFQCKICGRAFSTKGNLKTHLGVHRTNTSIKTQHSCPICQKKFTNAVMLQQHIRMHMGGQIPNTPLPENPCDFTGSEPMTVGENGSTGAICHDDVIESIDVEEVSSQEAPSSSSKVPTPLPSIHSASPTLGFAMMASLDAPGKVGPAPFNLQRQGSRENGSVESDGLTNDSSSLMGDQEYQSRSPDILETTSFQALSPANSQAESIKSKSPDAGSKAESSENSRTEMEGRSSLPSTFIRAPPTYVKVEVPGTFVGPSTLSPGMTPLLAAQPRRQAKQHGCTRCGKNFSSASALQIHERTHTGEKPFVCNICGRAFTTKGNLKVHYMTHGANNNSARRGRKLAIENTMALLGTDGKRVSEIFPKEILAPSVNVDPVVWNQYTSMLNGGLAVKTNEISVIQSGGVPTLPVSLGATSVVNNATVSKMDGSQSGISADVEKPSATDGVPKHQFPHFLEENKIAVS
Method: universal PBM
Form: double-stranded DNA, one strand shown
Medium: in vitro
Concentration: 600 nM
Setting: 8-mer, flanks averaged, mean of replicates
Direction: higher = stronger binding
Strand | E-score
AAACATCT | 0.251
AGCCCTGC | -0.316
GCAGTACA | -0.14
CTTCCGTA | -0.00887
ACAGGACA | -0.0667
ATAATTTG | 0.39
AAGGCATG | -0.0335

Study 2
Molecule: PhoQ, residues 284 288 289 292 302 303 AMDMFI
Method: Sort-seq
Measured: YFP reporter
Medium: E. coli
Setting: PhoQ-PhoP variant library
With: 10 µM Mg2+
Reference: high Mg2+ state
Direction: higher = stronger signaling
target | fold induction
PhoP, residues 12 14 15 18 19 TQCLL (Escherichia coli, UniProt P23836) | 0.527
PhoP, residues 12 14 15 18 19 VHTVL (Escherichia coli, UniProt P23836) | 1.1
PhoP, residues 12 14 15 18 19 ICWRQ (Escherichia coli, UniProt P23836) | 0.142

Study 3
Target: Prothrombin, mature alpha-thrombin (F2, Homo sapiens, UniProt P00734)
Method: aptamer microarray, sandwich
Form: DNA with 2'F-ANA
Medium: in vitro
Concentration: 200 nM
Setting: whole 15-mer aptamer, many near background
With: Cy3 exosite-II aptamer, 400 nM
Direction: higher = stronger binding
Strand: GGTTGGTGTGGTTGG
Modification | mean fluorescence intensity [a.u.]
2'F-ANA at 2 3 4 5 7 9 10 13 14 15 | 53.4
2'F-ANA at 1 2 3 4 11 12 14 | 70.5
2'F-ANA at 3 4 8 10 11 15 | 251
2'F-ANA at 3 4 5 8 9 12 13 15 | 112
2'F-ANA at 1 4 5 8 9 10 11 12 13 14 | 58.4
2'F-ANA at 1 3 4 6 10 11 13 | 57.5
2'F-ANA at 1 5 6 8 9 10 14 15 | 52.3
2'F-ANA at 1 2 4 7 8 | 157
2'F-ANA at 3 5 6 9 11 12 13 14 15 | 71.7

Study 4
Target: Centromere-binding protein 1, full length, N-terminal tag (CBF1, Saccharomyces cerevisiae, UniProt P17106, residues 1-351)
Sequence of UniProt P17106 (whole entry, looked up): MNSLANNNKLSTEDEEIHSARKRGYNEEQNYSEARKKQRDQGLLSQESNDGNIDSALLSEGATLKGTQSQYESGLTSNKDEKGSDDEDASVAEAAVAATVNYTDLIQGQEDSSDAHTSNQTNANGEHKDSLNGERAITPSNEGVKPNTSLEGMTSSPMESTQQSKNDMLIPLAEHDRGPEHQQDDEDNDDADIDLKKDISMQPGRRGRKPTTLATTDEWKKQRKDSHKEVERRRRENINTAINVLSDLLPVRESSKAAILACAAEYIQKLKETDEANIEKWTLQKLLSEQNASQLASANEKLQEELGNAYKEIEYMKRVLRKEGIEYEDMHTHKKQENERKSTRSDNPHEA
Method: protein-binding microarray
Form: double-stranded DNA, one strand shown
Medium: in vitro
Concentration: 0.8 µM
Setting: whole 60-bp probe, no competitor
Direction: higher = stronger binding
Strand | fluorescence intensity [a.u.]
CCTAACTACTATAATATCGTGCGATAGCTTCGTACAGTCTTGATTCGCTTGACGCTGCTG | 522
CTACTTTCGCATCGTCACCGATTTAAAGCTCTCTTCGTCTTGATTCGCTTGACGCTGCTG | 555
CCTAACTACTATATGCATGTTGGATAGCTTCGTACAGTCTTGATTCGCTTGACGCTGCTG | 531
GAACTAAACGAAAATCCCGTGAAAAAAATTTATTAGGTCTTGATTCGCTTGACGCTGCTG | 687
GAACTACAGCATGCAATCGTGGTCAGAATTCTATAGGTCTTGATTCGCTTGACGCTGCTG | 529
GAATTGCCATACCCGCACACGGGGTTCTTTGAGTAGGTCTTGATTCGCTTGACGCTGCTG | 597
CTAATTTGTTCCGATCAGTTGAAGGTCATCAACTTCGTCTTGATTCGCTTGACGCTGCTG | 541
GAAGAAGAGATACCTCACGTCTGTAATATCTAATAGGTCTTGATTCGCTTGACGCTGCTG | 483
